Experimental data from different studies.
Compare with care: the assays were run in different laboratories. Several values in a cell are separate wells, animals, samples, runs or records.
Target: G protein-coupled receptor kinase 4 (GRK4, Homo sapiens, UniProt P32298)

| Compound | assay | setting | scale | quantity | value |
| --- | --- | --- | --- | --- | --- |
| CCn1cc(C(=O)O)c(=O)c2c(N)c(F)c(NC3CCCCC3)cc21 | kinase activity | 0.1 µM, added: ATP at Km |  | inhibition | 4% |
| C[C@H](c1ccccc1)N1C(=O)C2=Nc3cccc(Cl)c3CN2C1=S | enzyme activity, inhibitor | 1.5 µM |  | inhibition | ≥ 85% |
| C=CC(=O)N1CCCC(n2c(=O)c3ncccc3n(Cc3ccc(Oc4ccccc4)cc3)c2=O)C1 (centres unmarked) | cell-free assay, competition with immobilised ligand | 1 µM |  | remaining binding | 89% |
| COc1cc(Nc2nccc(-c3cnn4nc(OC)ccc34)n2)cc(C(F)(F)F)c1 | binding, competition with immobilised ligand | 1 µM |  | remaining binding | 94% |
| COCC12C(=O)NC3C4(C(OC)CC1O)C1CC5(O)C(OC)C(O)C(OC(C)=O)(C1C5OC(=O)c1ccccc1)C3(O)C(OC)C24 (centres unmarked) | kinase activity, inhibitor, ProQinase kinase profiling | 25 µM | baseline: control | remaining activity | 85% and 62% |
| CC(C)=CC1OC(C)(C)C2C=C3C(=O)C(Cl)=CC(O)C3C3C(O)C4OC4C(=O)C132 (centres unmarked) | cell-free assay, competition with immobilised ligand | 10 µM |  | remaining binding | 85% |
| CN1CCN(Cc2ccc(-c3ccc(CO[C@H]4CCC[C@@H]4NC(=O)c4cc(-c5cnn(C)c5)cnc4N)cc3)cc2)CC1 | enzyme activity, inhibitor | 0.1 µM |  | inhibition | -8% |
| Nc1ncc(-c2cc(-c3cnn(CC(F)(F)F)c3)ncc2F)nc1C(=O)NC1CNCC(F)C1 (centres unmarked) | enzyme activity | 1 µM | baseline: DMSO control | remaining activity | 97.5% |
| CNC1C[S+]2CC[S+]3CC[S+](C1)[Ru-4]321([N]=C=S)[n]2c3ccc(OC)cc3c3c4c(c5cc(F)c[n+]1c5c32)C(=O)NC4=O (centres unmarked) | KinomeScan | 0.1 µM | baseline: untreated | remaining binding | 100% |
| COc1cc(Nc2nc(C)cc(-c3cnn4nc(OC)ccc34)n2)cc(C(F)(F)F)c1 | inhibitor | 1 µM | baseline: control | remaining activity | 85% |
| COc1c(Cl)cccc1Nc1c(-c2ccncc2C#C[C@@]2(C)CCCN2C(=O)/C=C/CN(C)C)[nH]c2c1C(=O)NCC2 | binding, competition with immobilised ligand | 3 µM |  | remaining binding | 75% |
| C=CC(=O)N1CCc2ccc(-n3c(=O)ccc4cnc5ccc(-c6cnn(C)c6)cc5c43)cc21 | KINOMEscan | 1 µM | baseline: DMSO control | remaining binding | 100% |
| CNC(=O)C1CCN(c2cc(C)c(F)cc2NC(=O)c2ccc(-c3cc(O)ccc3C)c(C)c2)CC1 | binding, competition with immobilised ligand | 1 µM |  | remaining binding | 99% |
| O=C(Cc1ccc(OCc2ccccc2)cc1)NC1(C(=O)O)CCN(C(=O)c2ccc(-c3cccc(Cl)c3)cc2)CC1 | enzyme activity, inhibitor | 10 µM |  | activity vs control | 88% |
| NC(=O)[C@@H](O)C[C@H]1CCc2sc3ncnc(O[C@H]4CC[C@H](N5CCOCC5)CC4)c3c21 | enzyme activity, inhibitor | 10 µM |  | inhibition | 5% |
| C[C@H]1CN(C(=O)c2cn(-c3ccnc(N)n3)c3cc(C#CC4(O)CCCCC4)ccc23)CCN1 | enzyme activity, inhibitor, FRET | 1 µM |  | inhibition | 36% |
| CCN1CCN(Cc2ccc(C(=O)Nc3ccc(C)c(NCc4cnc5[nH]ccc5c4OC)c3)cc2C(F)(F)F)CC1 | binding, competition with immobilised ligand | 1 µM |  | remaining binding | 97% |
| Nc1ncc2c(n1)-c1c([nH]c3ccc(C4=CCOCC4)cc13)CCC2 | binding, competition with immobilised ligand | 1 µM |  | remaining binding | 87% |
| C[C@]1(O)CCCN(c2nc(Nc3ccc(S(=O)(=O)N[C@H]4CC[C@H](CN5CCN(c6ccc(C7CCC(=O)NC7=O)cc6F)CC5)CC4)cc3)ncc2C(F)(F)F)C1 (some centres unmarked) | binding, competition with immobilised ligand | 1 µM |  | remaining binding | 6.7% |
| C=CC(=O)N1Cc2nc(-c3cc(-c4cc(Cl)cnc4Cl)c(F)cc3F)n(-c3ccncn3)c2C1 | cell-free assay, inhibitor | 1 µM |  | inhibition | 9.1% |
| NC(=O)C[C@H]1CCc2sc3ncnc(O[C@H]4CC[C@H](N5CCOCC5)CC4)c3c21 | enzyme activity, inhibitor | 10 µM |  | inhibition | 5% |
| Cc1cnc2nc1Nc1cccc(c1)COC/C=C/COCc1cc(ccc1OCCN1CCOCC1)N2 | binding | 0.1 µM |  | remaining binding | 73% |
| Cc1ccc(-c2c(/C=C(\C#N)C(=O)NC(C)C)n(CCCO)c3ncnc(N)c23)cc1 | cell-free assay, competition with immobilised ligand | 1 µM |  | remaining binding | 81% |

Excerpt of the above:
| Compound | assay | setting | scale | quantity | value |
| --- | --- | --- | --- | --- | --- |
| O=C(Cc1ccc(OCc2ccccc2)cc1)NC1(C(=O)O)CCN(C(=O)c2ccc(-c3cccc(Cl)c3)cc2)CC1 | enzyme activity, inhibitor | 10 µM |  | activity vs control | 88% |
| NC(=O)[C@@H](O)C[C@H]1CCc2sc3ncnc(O[C@H]4CC[C@H](N5CCOCC5)CC4)c3c21 | enzyme activity, inhibitor | 10 µM |  | inhibition | 5% |
| C[C@H]1CN(C(=O)c2cn(-c3ccnc(N)n3)c3cc(C#CC4(O)CCCCC4)ccc23)CCN1 | enzyme activity, inhibitor, FRET | 1 µM |  | inhibition | 36% |
